Experimental data from different studies.
Numbered parts are unrelated; each lists some results of a single study.

Block 1
Target: RNA binding protein fox-1 homolog 2, RRM domain, GST-SBP tag (RBFOX2, Homo sapiens, UniProt O43251-10, residues 100-194)
Method: RNA Bind-n-Seq
Form: RNA
Matrix: in vitro
Concentration: 365 nM
Setting: natural RNA segment, single round, ends assumed
Reference: no-protein control
Reading: higher = stronger binding
Target sequence (chain): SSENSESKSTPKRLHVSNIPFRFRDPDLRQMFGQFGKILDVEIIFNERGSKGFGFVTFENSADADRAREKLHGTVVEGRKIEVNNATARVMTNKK
Strand	RBNS enrichment (R)
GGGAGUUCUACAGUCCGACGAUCGAGAACGGGAGAACAGGUCUAAGGAAUUGUACCUUGAUGUGCUCUGCAAAGGAGAUAACGAAUGGGGCGCAGGGUAGACAAGAACAAGACCCCUCCCCACAGAGGAAGCCUGGAAUUCUCGGGUGCCAA	0.617
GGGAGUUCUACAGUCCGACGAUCUAUUUUAAACUUGUGUAUCACAACUUGGUUGAUAUGCCUAAAAUGAUCUACUGGCUUUUGCUUAUGAUUAAAAAACCUCAAAUCUAUCUUCUACAUUUUAAAAGGAAGAAUGGAAUUCUCGGGUGCCAA	0.329
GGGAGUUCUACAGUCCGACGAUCUCUCUCUCCUUCAUGUGCUAUUCUCCUUCCCCAGGCAGAUUGGCAGGGGAAGUGGGAGCAGAUGGCCUGCCUGUGGUUGAGAGGGCUACCUGCCCGACCCCUCCCCCACCUGGAAUUCUCGGGUGCCAA	0.749
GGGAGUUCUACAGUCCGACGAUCAGAAGUGUUUCAAACAUAUCUGAAUGUAUAAAAUAAGAGUAAAUGCCCUACAUGGUGUGAUGCUGCAUUAUAUAUAAAACUGUGUGCAUAUAUUAAAUUUUGUCUCUUGAUGGAAUUCUCGGGUGCCAA	0.651
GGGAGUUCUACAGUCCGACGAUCAAAGGACAACACGAGCUGGUCUUGUGUUGCUGGUUCCUAUUCAGUAUUUCCUGGGGAUUGUUUGCUUUUUAAGUGAAACACUUCUGACCAAUAGCACAGAACGUCUUAAUUGGAAUUCUCGGGUGCCAA	0.203
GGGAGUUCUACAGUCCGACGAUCGCCUCACAUUUGCAGGUAAUAUCAAGCAGCAAACUAAAUUCUGAGAAAUAAACGAGUCUAUUACUGUUUGGUCUCAGCUGAUUUGCCCUUUGAUGGCCCAGUGAAGAGAGUGGAAUUCUCGGGUGCCAA	0.356
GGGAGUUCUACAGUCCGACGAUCUACUUUGUCCAUAAAAUUAUAAUUGUUUAUGUAAUUUUAUUGUUUCUUAUGGAAACAAUUGGAAAAGUAUAUGGAAAAUGAUUAUUUCAAAGAAUAUUUAUUUAAAGAGGUGGAAUUCUCGGGUGCCAA	0.582
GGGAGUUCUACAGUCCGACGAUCCCAUGCAACAACCACCACCUUAUACAUCACUUCCUGUUUUAAGCAGCUCUAAAACAUAGACUGAAGAUUUAUUUUUAAUAUGUUGACUUUAUUUCUGAGCAAAGCAUCGGUGGAAUUCUCGGGUGCCAA	0.921
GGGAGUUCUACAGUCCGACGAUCCAUGUCUAUUUACAUAGUGAAGGUCCAGAAUAAAUGAAAUAAUUUUGCUACCUUGGUGUUGAAACAUAAACUGUGCCGUUGAUAGACCUAGGUAGAAUAGUAGGAUGGCAUGGAAUUCUCGGGUGCCAA	0.696

Block 2
Target: Ras GTPase-activating protein-binding protein 1, C-terminal RGG region (G3BP1, Homo sapiens, UniProt Q13283)
Sequence of UniProt Q13283 (whole entry, looked up): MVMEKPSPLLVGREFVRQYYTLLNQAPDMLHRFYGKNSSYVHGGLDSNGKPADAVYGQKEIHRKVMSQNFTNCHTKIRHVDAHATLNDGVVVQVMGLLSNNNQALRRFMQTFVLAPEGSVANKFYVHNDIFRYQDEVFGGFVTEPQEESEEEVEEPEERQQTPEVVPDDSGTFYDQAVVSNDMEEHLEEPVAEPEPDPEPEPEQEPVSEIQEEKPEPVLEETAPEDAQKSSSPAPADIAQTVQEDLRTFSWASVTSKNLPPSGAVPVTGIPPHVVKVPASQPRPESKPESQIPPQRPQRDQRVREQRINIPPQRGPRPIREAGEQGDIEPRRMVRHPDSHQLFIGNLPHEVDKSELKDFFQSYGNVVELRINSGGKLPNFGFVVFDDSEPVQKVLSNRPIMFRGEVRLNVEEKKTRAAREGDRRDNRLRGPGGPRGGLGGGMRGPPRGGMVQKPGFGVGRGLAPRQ
Method: RNA Bind-n-Seq
Form: RNA
Matrix: in vitro
Concentration: 1 µM
Setting: whole 134-nt RNA, ends assumed
Together with: 150 mM KCl
Reference: input library
Reading: higher = stronger binding
Strand	log2 enrichment
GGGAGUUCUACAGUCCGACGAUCUCAAGUCCUGUGCUACACAUCGUAUGUACCGAAUCGGGAAAGGAAAGGGAAAGGAAAGUAUUAUGUUACGCCGUUCGGAUCUGCACUUCCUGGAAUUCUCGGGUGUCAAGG	-1.54
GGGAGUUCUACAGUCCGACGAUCCCUCAAGUCCUGUGCUACACAUCGUAUGUACCGAAUCGGGUGGGUGGGAGGGAAAGUAUUAUGUUACGCCGUUCGGAUCUGCACUUCCAGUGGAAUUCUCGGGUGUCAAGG	1.16
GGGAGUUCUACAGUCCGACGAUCCAAGUCCUGUGCUACACAUCGUAUGUACCGAAUCGGAAAAGGGGAAAAGGAAAAGGAAAGUAUUAUGUUACGCCGUUCGGAUCUGCACUUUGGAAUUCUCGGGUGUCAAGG	-1.77
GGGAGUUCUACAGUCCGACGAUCUCAAGUCCUGUGCUACACAUCGUAUGUACCGAAUCGGAAAGGAAAAAGGUUUGGAAAGUAUUAUGUUACGCCGUUCGGAUCUGCACUUCCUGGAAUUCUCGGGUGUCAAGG	-1.47
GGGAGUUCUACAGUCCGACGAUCACCAUGCAGGUGGGCAUCUUUGGGAAGUGGGGCAAGGGGGGGAUAGGGAGGGGGGUAACACUUUGGGAACAAAAGGUCCCAGGUCGUUUCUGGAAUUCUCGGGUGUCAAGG	-0.0906
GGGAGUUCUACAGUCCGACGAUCUACUCUUUGAUUUAUCAAAUGUGUUCAGUUGGAGAAUCGUCCUCAGGAAAGGCUUCAAGGAGCCUUGCACAGCAUAUUCCUGGCCCUGGUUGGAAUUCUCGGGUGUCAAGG	-1.54
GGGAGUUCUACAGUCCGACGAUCCUCAAGUCCUGUGCUACACAUCGUAUGUACCGAAUCGGGUUUGGGUGGGAGGGAAAGUAUUAUGUUACGCCGUUCGGAUCUGCACUUCCAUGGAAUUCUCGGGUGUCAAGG	2.42
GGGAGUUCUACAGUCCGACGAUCGAAAUACCAUCGGAAGACGAUGGGACGGUGCUGCUCUCCACGGUUACAGCCCAGUUUCCAGGGGCGUGUGGGCUUCGCUACAGGAAUCCAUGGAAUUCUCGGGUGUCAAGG	-0.988
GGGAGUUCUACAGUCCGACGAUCUGGCCCUGGUGGAAUGCGGGGAGGAAGAGGUGGCCUCAUGGAUCGUGGUGGUCCCGGUGGAAUGUUCAGAGGUGGCCGUGGUGGAGACAGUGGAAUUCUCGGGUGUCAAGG	1.83
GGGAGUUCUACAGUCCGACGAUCCAAGUCCUGUGCUACACAUCGUAUGUACCGAAUCGGGAGGGAAAGGGAAAAAGGGAAAGUAUUAUGUUACGCCGUUCGGAUCUGCACUUCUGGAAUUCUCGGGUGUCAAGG	1.34

Block 3
Target: Interferon regulatory factor 7, full length, phosphomimetic (IRF7, Homo sapiens, UniProt Q92985, residues 1-503, S471D/S472D/S475D/S476D/S477D/S483D/S484D/S487D)
Method: protein-binding microarray
Form: double-stranded DNA, one strand shown
Matrix: in vitro
Concentration: 2200 nM top
Setting: 60-bp whole probe
Together with: salmon DNA 0.4 mg/ml
Reference: random background probes
Reading: higher = stronger binding
Shared flanks, not repeated: GCCTAGCAC … GTCTTGATTCGCTTGACGCTGCTG
Residues (chain): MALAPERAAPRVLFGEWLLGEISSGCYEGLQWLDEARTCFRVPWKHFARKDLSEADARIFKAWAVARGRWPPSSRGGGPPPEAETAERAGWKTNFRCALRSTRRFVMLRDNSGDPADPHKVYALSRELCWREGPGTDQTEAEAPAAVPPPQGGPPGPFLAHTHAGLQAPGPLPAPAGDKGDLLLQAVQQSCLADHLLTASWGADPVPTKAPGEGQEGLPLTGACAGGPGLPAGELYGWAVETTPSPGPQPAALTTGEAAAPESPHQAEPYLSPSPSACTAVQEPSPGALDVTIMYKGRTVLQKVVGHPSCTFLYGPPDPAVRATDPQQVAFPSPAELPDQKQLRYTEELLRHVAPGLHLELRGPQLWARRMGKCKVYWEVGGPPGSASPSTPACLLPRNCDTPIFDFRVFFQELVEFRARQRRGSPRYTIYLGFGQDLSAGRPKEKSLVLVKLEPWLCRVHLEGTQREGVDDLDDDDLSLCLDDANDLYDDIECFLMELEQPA
Strand	fitted relative affinity
TTAGATATCAGTCTCGAGTAGTGCTAG	0.0666 z-score
TCACATTCCAATTCTTTTACTGTGCTA	2.52 z-score
TTAGAACTGGGGACTGTATTAGTGCTA	-0.253 z-score
TTAGGTTTCGACTTTCGGGTAGTGCTA	9.42 z-score
TCAGAACTGGGGTTTCGATTAGTGCTA	2.15 z-score
TTAGATATCGTGTTTCGATTAGTGCTA	2.77 z-score
TCATGCTTTCATTTATTACTGTGCTAG	2.25 z-score
ACTAGTTTCCATTTTCAGAAGTGCTAG	6.38 z-score
TGAGGACTGGGGTATCGGTTAGTGCTA	-0.656 z-score
CCCTTTCTCAACCTCCAGAGGTGCTAG	1.99 z-score
GGCGGACTGCTACTGCTGACGTGCTAG	-0.91 z-score
TCAAAAATGATTTTTTTACTGTGCTAG	-0.179 z-score
TTAGGTTTCGTTATCGGTTAGTGCTAG	6.88 z-score
TCATTTCTGAATGTCTTACTGTGCTAG	1.97 z-score
CAATATTTGCAACATCCCAATGTGCTA	0.825 z-score
TTAGATATCAGCCTGGATTAGTGCTAG	-0.216 z-score
TTAGATATCAGGATCGATTAGTGCTAG	-0.0155 z-score
TTAGGACTGGGGACTGTGTTAGTGCTA	-0.576 z-score

Block 4
Target: RING finger protein unkempt homolog, zinc fingers 1-6, GST-SBP tag (UNK, Homo sapiens, UniProt Q9C0B0, residues 30-357)
Sequence of UniProt Q9C0B0 (30-357, looked up): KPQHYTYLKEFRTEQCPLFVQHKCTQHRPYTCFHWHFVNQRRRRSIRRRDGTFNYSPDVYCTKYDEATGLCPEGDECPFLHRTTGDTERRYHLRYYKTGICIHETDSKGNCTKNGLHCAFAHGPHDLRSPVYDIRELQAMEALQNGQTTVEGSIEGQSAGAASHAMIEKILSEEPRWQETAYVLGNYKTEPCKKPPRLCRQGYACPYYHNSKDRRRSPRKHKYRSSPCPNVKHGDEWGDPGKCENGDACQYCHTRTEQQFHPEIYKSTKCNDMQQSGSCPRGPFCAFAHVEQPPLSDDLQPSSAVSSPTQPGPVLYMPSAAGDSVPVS
Method: RNA Bind-n-Seq
Form: RNA
Matrix: in vitro
Concentration: not given
Setting: RNA with constant flanks, human and mouse sites, ends assumed
Reference: input RNA pool
Reading: higher = stronger binding
Strand	bound/input enrichment
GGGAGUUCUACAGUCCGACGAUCGAUGUCAUUACUUCCUGUAUUGUCAUUUCUUCCUAUAAUUGAAAACUGAAAGACAUCUCAGAUUCCUUUUAAAAGAGUCUCUCCCUUGCCAUGUCUCUCCAUCCCUUUCCCUCCCCUUCCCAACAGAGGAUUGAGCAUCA	0.721 ratio
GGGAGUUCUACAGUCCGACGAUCGCUGUUAGCAUUUUUCUCUUUGCAAUAGAUCUUCCUAUGUCAGUACACAUCAAUCUACCUCAUUCUUACCUCUGCAUAAGAGAGUAGUGUGUAGUUGUAUAAUAGUUUAACUUGGCGAUUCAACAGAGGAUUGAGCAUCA	5.79 ratio
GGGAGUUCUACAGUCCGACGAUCAGGAAGUUUGUAGAUGAAGGAAUUAAGACAUUAGAAGAUCUCAGGAAAAAUGAAGAUAAACUGAACCAUCAUCAACGAAUUGGGCUGAAAUAUUUCGAGGACUUUGAAAAGAGAAUUCCUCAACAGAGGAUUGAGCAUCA	0.617 ratio
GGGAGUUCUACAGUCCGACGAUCAUUGAAAAUAUUCAAAGACUAGAUUUGACACCCGCAACUGCUAUUAAAUUAAAUAAAUACCUCUUGAGUCUCUGUACCAGUUAUCUCAAGUCUGAAGCCUGUAGUUGUCGAAUCCCAGUUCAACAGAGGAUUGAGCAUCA	0.635 ratio
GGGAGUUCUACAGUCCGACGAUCGAUAAUGCUAUGUCAAGACUGUUGAAGAAGUAUGAUGUAUUGUUUGCACUCUUCAGCAAAUUGGAAAGGACAUGUGAACUUAUAUAUUUGACACAACCCAGCAGUUCGAUAUCUACUGAACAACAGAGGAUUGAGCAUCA	0.0918 ratio
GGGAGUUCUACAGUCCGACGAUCGCAAAACUUUACAGAUACGAUAAAGAUGUUGGCCAGUGGAAAGAAAGAGGCAUUGGAGAUAUAAAGAUCUUACAGAAUUAUGAUAAUAAACAAGUUCGCAUCGUGAUGAGAAGGGACCAGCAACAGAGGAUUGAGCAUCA	0.559 ratio
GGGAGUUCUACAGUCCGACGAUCAUAAAGACUGAAAACAAGGUCCUGAACAAAGUCAUCACUGUUUAUGCGGCACUUUGUUGCGAGAUCAAGAAAUUAAAAUAUGAGGCAGAAACUAAGUUUUACAAUGGUCUUCUGUUUUAUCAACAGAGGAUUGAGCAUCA	0.381 ratio
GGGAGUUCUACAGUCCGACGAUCUAACCACAUCAAGAUGGUUGGAAAGCUGAAGCAGAACUUACUAUUGGCAUGUCUGGUGAUUAGUUCUGUGACUGUGUUUUACCUGGGCCAGCAUGCCAUGGAAUGCCAUCACCGGAUAGACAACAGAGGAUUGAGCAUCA	0.134 ratio
